Assay results gathered from unrelated publications.
Every numbered part comes from another study and shows a few of its results, in no order.
UniProt P14921, sequence (whole entry, looked up): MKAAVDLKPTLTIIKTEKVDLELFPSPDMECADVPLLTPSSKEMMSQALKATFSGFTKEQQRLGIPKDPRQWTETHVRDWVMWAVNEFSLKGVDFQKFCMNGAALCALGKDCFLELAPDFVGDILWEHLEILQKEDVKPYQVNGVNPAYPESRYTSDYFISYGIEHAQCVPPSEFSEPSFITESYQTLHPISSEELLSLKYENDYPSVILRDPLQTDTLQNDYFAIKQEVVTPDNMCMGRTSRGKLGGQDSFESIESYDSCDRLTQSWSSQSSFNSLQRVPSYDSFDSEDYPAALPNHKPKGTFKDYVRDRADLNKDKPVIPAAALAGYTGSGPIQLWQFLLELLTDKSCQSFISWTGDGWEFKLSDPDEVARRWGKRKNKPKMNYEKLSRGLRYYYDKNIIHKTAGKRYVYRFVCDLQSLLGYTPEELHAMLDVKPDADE
UniProt P48431, sequence (19-118, looked up): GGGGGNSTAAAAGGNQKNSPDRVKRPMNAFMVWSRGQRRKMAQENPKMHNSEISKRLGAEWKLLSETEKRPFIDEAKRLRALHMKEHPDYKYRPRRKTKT
UniProt P16220, sequence (whole entry, looked up): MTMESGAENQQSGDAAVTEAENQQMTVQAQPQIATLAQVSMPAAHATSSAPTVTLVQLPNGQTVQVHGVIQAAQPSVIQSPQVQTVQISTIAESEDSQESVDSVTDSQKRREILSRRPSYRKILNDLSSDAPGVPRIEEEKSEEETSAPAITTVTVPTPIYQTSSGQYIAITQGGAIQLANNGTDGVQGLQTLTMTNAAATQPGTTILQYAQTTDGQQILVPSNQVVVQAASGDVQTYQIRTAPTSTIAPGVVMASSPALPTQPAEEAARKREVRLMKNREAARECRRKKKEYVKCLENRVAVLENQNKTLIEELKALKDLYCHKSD

Set 1 — method: protein-binding microarray; form: double-stranded DNA, one strand shown; matrix: in vitro; tested at: 2200 nM top; setting: 60-bp whole probe; added: salmon DNA 0.4 mg/ml; relative to: random background probes; direction: higher = stronger binding; shared flanks, not repeated: GCCTAGCAC … GTCTTGATTCGCTTGACGCTGCTG
Target: Interferon regulatory factor 7, full length, phosphomimetic (IRF7, Homo sapiens, UniProt Q92985, residues 1-503, S471D/S472D/S475D/S476D/S477D/S483D/S484D/S487D)
UniProt Q92985, sequence (whole entry, unmodified, looked up): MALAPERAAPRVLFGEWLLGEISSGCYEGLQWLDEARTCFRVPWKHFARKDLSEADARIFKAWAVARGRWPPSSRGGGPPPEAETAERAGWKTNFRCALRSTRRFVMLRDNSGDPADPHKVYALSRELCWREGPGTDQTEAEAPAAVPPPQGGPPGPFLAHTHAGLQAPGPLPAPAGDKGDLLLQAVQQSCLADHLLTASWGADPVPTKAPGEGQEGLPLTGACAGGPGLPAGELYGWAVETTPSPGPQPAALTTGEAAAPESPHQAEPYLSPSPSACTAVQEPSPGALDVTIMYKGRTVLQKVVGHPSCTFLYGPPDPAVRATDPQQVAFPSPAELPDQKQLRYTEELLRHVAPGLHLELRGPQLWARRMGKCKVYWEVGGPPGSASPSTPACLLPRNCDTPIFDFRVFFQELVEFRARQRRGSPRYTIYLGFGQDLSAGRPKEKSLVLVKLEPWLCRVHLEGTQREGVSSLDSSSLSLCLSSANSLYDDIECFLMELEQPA
| Oligonucleotide | fitted relative affinity |
| --- | --- |
| GACGATATCGTGACTGGAGACGTGCTA | -0.12 z-score |
| TCATGTTTAAGAATGTTACTGTGCTAG | 0.559 z-score |
| GCTATTTTTAGGATGGGCTAGTGCTAG | 0.162 z-score |
| GAAGGTCACAAAGACTTCATGTGCTAG | -0.674 z-score |
| GACGGTTTCGGTCTCGGGGCGTGCTAG | 6.6 z-score |
| AAGAAGCTTCCTCTCTGCCAGTGCTAG | 0.559 z-score |
| TTAGGTATCCTTCTCCTTCAGTGCTAG | 1.41 z-score |
| ACCACTCTTCCTTTACTTTCGTGCTAG | 4.15 z-score |

Set 2 — observed: enzyme activity; action: inhibitor; tested at: 20 µM
Target: Replicase polyprotein 1ab, polymerase (rep, Severe acute respiratory syndrome coronavirus 2, UniProt P0DTD1)
| Compound | inhibition [%] |
| --- | --- |
| COc1cc(/C=C/c2ccc(O)cc2)cc(OC)c1 | 2.58 |
| O=C(CC12CC3CC(CC(C3)C1)C2)Nc1cccc2nc(NCCNCCO)ccc12 | -3.34 |
| CCC(C(=O)O)c1ccc(CC(C)C)cc1 (centres unmarked) | -0.56 |
| CC(C)(C)C(=O)NCCCC(=O)O | 5.82 |
| c1ccc(-c2ccc(CNc3nc(-c4ccccn4)nnc3-c3ccccc3)cc2)cc1 | 3.78 |
| CC(C)(O)C(=O)Nc1ccc([N+](=O)[O-])c(C(F)(F)F)c1 | -1.27 |
| CN(Cc1ccccc1)C(=O)[C@H](Cc1ccc2ccccc2c1)NC(=O)[C@@H]1CCCN1C(=O)Nc1ccccc1[N+](=O)[O-] | -2.41 |
| Cc1ccc(-c2ncc(Cl)cc2-c2ccc(S(C)(=O)=O)cc2)cn1 | -3.64 |
| Cc1ccc(S(=O)(=O)NC(=O)NN2CC3CCC[C@@H]3C2)cc1 (stereo in doubt) | -8.9 |
| Cc1cccc(C)c1OCC(=O)N[C@@H](Cc1ccccc1)[C@@H](O)C[C@H](Cc1ccccc1)NC(=O)[C@H](C(C)C)N1CCCNC1=O | 4.7 |
| Cc1cc(C(=O)Nc2cc(Oc3ccc4nc(NC(=O)C5CC5)cn4n3)ccc2C)n(C)n1 | -7.9 |
| C#C[C@]1(OC(=O)CCCCCC)CC[C@H]2[C@@H]3CCC4=CC(=O)CC[C@@H]4[C@H]3CC[C@@]21C | -8.62 |
| O=C(/C=C/c1ccc2c(c1)OCO2)N1CCCCC1 | -2.76 |
| COc1cc2ncn(-c3cc(OCc4ccccc4C(F)(F)F)c(C(N)=O)s3)c2cc1OC | -1.62 |
| CCc1c(C(=O)Nc2cc(S(=O)(=O)N(CC)CC)ccc2O)[nH]c(C)c1C(C)=O | 2.12 |
| O=C(Nc1cnc(Cl)nc1)c1ccc(F)c(F)c1 | 1.68 |
| Nc1nc(N)c2nc(CNc3ccc(C(=O)N[C@@H](CCC(=O)O)C(=O)O)cc3)cnc2n1 | 0.36 |
| NC(=O)[C@H]1CCS[C@@H]2C[C@]3(CCCN3C(=O)Cc3ccc(NC(=O)COc4ccc(Cl)cc4Cl)cc3)C(=O)N12 | 0.3 |
| O=C(O)c1ccccc1-c1c2cc(I)c(=O)c(I)c-2oc2c(I)c(O)c(I)cc12 | 96.1 |
| CCOC(=O)[C@@H](C)Oc1ccc(Oc2nc3ccc(Cl)cc3o2)cc1 | -4.46 |
| CO[C@@H](C(=O)N1Cc2[nH]nc(NC(=O)c3ccc(N4CCN(C)CC4)cc3)c2C1)c1ccccc1 | -0.24 |
| COc1cc2c(CCNC(C)=O)c[nH]c2cc1Cl | 3.28 |
| Cc1cc2c(OCC(CNC(C)(C)C)OC(=O)c3ccccc3)cccc2[nH]1 (centres unmarked) | -0.11 |
| CCOC(=O)C1=C(C)NC(=S)NC1c1cccc(O)c1 (centres unmarked) | -7.43 |
| O=C(O)CCCc1ccccc1 | 3.87 |

Set 3 — cell line: HEK-293T/ACE2; tested at: concentration not given; time: 16 (unit not given); relative to: vehicle
| Compound | viability [%] |
| --- | --- |
| CC1=NS(=O)(=O)c2cc(Cl)ccc2N1 | 100 |
| CN1CCc2nc(C(=O)N[C@@H]3C[C@@H](C(=O)N(C)C)CC[C@@H]3NC(=O)C(=O)Nc3ccc(Cl)cn3)sc2C1 | 51.8 |
| C[C@H]1O[C@@H](O[C@H]2[C@@H](O)C[C@H](O[C@H]3[C@@H](O)C[C@H](O[C@H]4CC[C@@]5(C)[C@H](CC[C@@H]6[C@@H]5CC[C@]5(C)[C@@H](C7=CC(=O)OC7)CC[C@]65O)C4)O[C@@H]3C)O[C@@H]2C)C[C@H](O)[C@@H]1O | 79.1 |

Set 4 — method: EMSA with sequencing; form: double-stranded DNA, one strand shown; matrix: in vitro; tested at: 10 and 20 nM; relative to: negative control set to 0; direction: higher = stronger binding
Target: Hepatocyte nuclear factor 3-alpha (Foxa1, Mus musculus, UniProt P35582, residues 1-468, full length assumed)
UniProt P35582, sequence (whole entry, looked up): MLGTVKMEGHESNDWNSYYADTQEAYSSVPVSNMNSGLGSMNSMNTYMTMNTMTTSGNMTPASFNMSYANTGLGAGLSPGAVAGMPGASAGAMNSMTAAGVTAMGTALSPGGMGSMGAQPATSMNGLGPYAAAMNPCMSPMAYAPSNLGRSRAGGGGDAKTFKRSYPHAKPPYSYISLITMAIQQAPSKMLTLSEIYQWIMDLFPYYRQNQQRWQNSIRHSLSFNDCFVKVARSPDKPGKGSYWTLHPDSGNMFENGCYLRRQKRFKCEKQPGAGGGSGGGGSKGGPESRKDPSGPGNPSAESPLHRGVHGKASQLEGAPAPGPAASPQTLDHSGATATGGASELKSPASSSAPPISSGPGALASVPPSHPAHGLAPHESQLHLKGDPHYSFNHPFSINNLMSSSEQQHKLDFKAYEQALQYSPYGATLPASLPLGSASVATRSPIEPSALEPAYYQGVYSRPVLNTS
Setting: whole designed probe, mean of two concentrations, ends assumed
| Oligonucleotide | normalised bound fraction [ratio] |
| --- | --- |
| GTGAGCGGTGCCCATTGATGGGGAACCCCTCATCCTGGGTGTCGGGGTGGGAGGTGTTCTCATCATGAATGGGAGGCGTACCCAGATCCAGCTCTGCCTTTTTTTAACCAAACCACATTTGTTTACACTCGCTGTTAATCGACATAGCAAGTGACTCACCAGATATGATACATGCCAGGAGAGAAAAAGAAAGTGCTGATGGAAAAATAATCTCATTAGTTTCACTGGGATCGTGGGGAC | 0.33 |
| GTGAGCGGTGCCCATTGATGGGGAACATGACTGACATAGATACATCTCTCAGAGTGAATAGGAAATCATTAACAACTATTTCATGAGTGAAGTTTCAATATATTTTTTAAAATTCAGAGTAATCTTCAAGATGGACTTTATTTTACCTAACACAACAATTCGGTCACCCTGTCATCCTAAAAATCTCTATAAGTAAAACTGATTGTAAGGATATGTTAATTTCACTGGGATCGTGGGGAC | -0.0295 |
| GTGAGCGGTGCCCATTGATGGGGAACATCTTCCCCCTCTTCCTTGCCCCACCAGCTCACCTTCCCGGGTTGTTTACTTTGAGCAAAGTAAACAAAGCCGGCATTCGTTAACCCTCTTCACGCGCATACTGCCAGAGCAAACAGATGAATCATGGTCCTTTGGCGACGCCAGGCTCCGGGAGAGCAAAGCACCGTGTCAGGGCCATGATCCGGGGTGGCCTTTCACTGGGATCGTGGGGAC | 0.541 |
| GTGAGCGGTGCCCATTGATGGGGAACTCCTCAGGCTAAAAGCCAGCAAAAAGAATCACCTGGCCAAACATCCCCTTTCAGTCTGCTTTCCTTAGAATGGCCTCCCAGGGGAGCTCTCTGGGCAAACAAAGCTGTTGACCTAGTTTGAAGGCCTGGAAAATTATCATGTGAGTCACTGGGACAACAGAGCAAAGTGCCAGGCCCCTGAGAAACTGTAAGCTTTCACTGGGATCGTGGGGAC | 0.186 |

Set 5 — method: RNA Bind-n-Seq; form: RNA; matrix: in vitro; tested at: 20 nM; setting: 6-mer, flanks averaged, single round; added: 150 mM LiCl; relative to: input library; direction: higher = stronger binding
Target: TAR DNA-binding protein 43, full length, His tag (TARDBP, Homo sapiens, UniProt Q13148, residues 1-414)
| Oligonucleotide | 6-mer enrichment (R) |
| --- | --- |
| UUUCCC | 1.11 |
| GGCAGU | 1.05 |
| GUGAUA | 1.04 |
| CCGCCC | 1.13 |
| UUCCGG | 0.918 |
| GUCGAU | 0.962 |
| GCUCGC | 0.854 |
| GGCCCU | 1.08 |

Single results of other studies
| Substance | target | test | system | setting | how to read | endpoint | value |
| --- | --- | --- | --- | --- | --- | --- | --- |
| CACGGGG | Microphthalmia-associated transcription factor, full length (MITF, Homo sapiens, UniProt O75030-10, residues 1-413) | protein-binding microarray | double-stranded DNA, one strand shown, in vitro | not given, k-mer, scored over probes, only values ≥0.25 | higher = stronger binding | E-score | 0.423 |
| CC(C)Nc1cccnc1N1CCN(C(=O)c2cc3cc(NS(C)(=O)=O)ccc3[nH]2)CC1 | Replicase polyprotein 1ab, main protease (rep, Severe acute respiratory syndrome coronavirus 2, UniProt P0DTD1) | enzyme activity, inhibitor | – | 20 µM, with DTT | – | inhibition | 67.5% |
| AAAGGATA | Protein C-ets-1 (ETS1, Homo sapiens, UniProt P14921, residues 1-441, full length assumed) | protein-binding microarray | double-stranded DNA, one strand shown, in vitro | not given, k-mer, scored over probes, only values ≥0.25 | higher = stronger binding | E-score | 0.302 |
| TATTTGA | Transcription factor SOX-2, HMG box (SOX2, Homo sapiens, UniProt P48431, residues 19-118) | protein-binding microarray | double-stranded DNA, one strand shown, in vitro | not given, k-mer, scored over probes, only values ≥0.25 | higher = stronger binding | E-score | 0.253 |
| ACCACGT | Cyclic AMP-responsive element-binding protein 1 (CREB1, Homo sapiens, UniProt P16220, residues 1-327, full length assumed) | protein-binding microarray | double-stranded DNA, one strand shown, in vitro | not given, k-mer, scored over probes, only values ≥0.25 | higher = stronger binding | E-score | 0.282 |

Excerpt of the above (set 1):
| Oligonucleotide | fitted relative affinity |
| --- | --- |
| TCATGTTTAAGAATGTTACTGTGCTAG | 0.559 z-score |
| GCTATTTTTAGGATGGGCTAGTGCTAG | 0.162 z-score |
| GAAGGTCACAAAGACTTCATGTGCTAG | -0.674 z-score |
| GACGGTTTCGGTCTCGGGGCGTGCTAG | 6.6 z-score |
| AAGAAGCTTCCTCTCTGCCAGTGCTAG | 0.559 z-score |
| TTAGGTATCCTTCTCCTTCAGTGCTAG | 1.41 z-score |
